Published values collected from several papers.
Lines come from different studies, so protocols differ.
RET: Proto-oncogene tyrosine-protein kinase receptor Ret (RET, Homo sapiens, UniProt P07949)
Sequence of UniProt P07949 (whole entry, unmodified, looked up): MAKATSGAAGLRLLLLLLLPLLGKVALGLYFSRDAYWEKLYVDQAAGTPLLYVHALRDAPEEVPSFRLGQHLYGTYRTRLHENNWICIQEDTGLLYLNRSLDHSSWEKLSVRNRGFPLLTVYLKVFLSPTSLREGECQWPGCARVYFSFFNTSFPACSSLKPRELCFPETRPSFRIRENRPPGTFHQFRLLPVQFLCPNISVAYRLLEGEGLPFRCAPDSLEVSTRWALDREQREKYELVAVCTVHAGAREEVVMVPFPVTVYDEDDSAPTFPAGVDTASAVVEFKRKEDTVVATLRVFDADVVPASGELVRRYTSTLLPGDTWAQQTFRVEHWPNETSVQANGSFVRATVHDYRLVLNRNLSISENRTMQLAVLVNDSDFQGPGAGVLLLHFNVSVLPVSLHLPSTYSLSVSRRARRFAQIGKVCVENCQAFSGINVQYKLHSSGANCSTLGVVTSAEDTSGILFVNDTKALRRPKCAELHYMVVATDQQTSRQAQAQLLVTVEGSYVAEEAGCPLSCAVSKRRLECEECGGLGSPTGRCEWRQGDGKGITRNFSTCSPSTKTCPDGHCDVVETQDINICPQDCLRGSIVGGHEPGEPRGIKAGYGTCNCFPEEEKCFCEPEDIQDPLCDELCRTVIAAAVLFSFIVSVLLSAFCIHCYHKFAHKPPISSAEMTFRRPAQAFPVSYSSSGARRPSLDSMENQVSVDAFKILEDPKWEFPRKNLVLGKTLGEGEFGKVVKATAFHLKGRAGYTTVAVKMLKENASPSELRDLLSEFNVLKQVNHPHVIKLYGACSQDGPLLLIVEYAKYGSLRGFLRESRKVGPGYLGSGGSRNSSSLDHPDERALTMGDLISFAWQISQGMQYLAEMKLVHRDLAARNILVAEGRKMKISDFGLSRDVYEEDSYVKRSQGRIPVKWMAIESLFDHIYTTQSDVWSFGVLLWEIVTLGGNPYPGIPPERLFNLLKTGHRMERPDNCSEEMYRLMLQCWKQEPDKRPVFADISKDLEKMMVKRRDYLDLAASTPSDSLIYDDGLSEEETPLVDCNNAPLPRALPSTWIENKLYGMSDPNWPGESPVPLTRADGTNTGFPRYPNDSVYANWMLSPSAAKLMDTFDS

Compound	target	assay	setting	how to read	endpoint	value
Nc1ncc(-c2cc(-c3cnn(CC(F)(F)F)c3)ncc2F)nc1C(=O)NC1CNCC(F)C1 (centres unmarked)	RET	enzyme activity	1 µM	baseline: DMSO control	remaining activity	85.2%
Cc1cccc(O[C@H]2CCC[C@@H](C(C)CNCc3ccncc3)C2)c1 (relative stereo)	RET	cell-free assay	1 µM		inhibition	8%
O=C=[N][Ru-4]123([n]4c5ccc(O)cc5c5c6c(c7cc(F)c[n+]1c7c54)C(=O)NC6=O)[S+]1CC[S+]2CC[S+]3CC1 (centres unmarked)	RET (Homo sapiens, UniProt P07949, V804L)	enzyme activity	100 nM, human enzyme, added: 10 µM ATP	baseline: untreated	remaining activity	38%
COc1ccc(S(=O)(=O)N2CCc3ccccc3C2)cc1N1CCN(C(=O)c2ccc(F)cc2C(F)(F)F)CC1	RET	enzyme activity, inhibitor	1 µM		inhibition	-11.6%
O=C(Cc1ccc(OCc2ccccc2)cc1)NC1(C(=O)O)CCN(C(=O)c2ccc(-c3cccc(Cl)c3)cc2)CC1	RET	enzyme activity, inhibitor	10 µM		activity vs control	96%
O=C(Nc1ccc(Oc2ncnc3[nH]cc(-c4ccccc4)c23)c(F)c1)c1c2n(n(-c3cc(F)ccc3F)c1=O)CCCC2	RET	enzyme activity, inhibitor	0.5 µM		inhibition	17%
CN1CCN(c2ccc(Nc3ncc(Cl)c(Nc4ccccc4P(C)(C)=O)n3)cc2Br)CC1	RET	enzyme activity, inhibitor	0.1 µM		inhibition	100%
CN1CCN(Cc2ccc(-c3ccc(CO[C@H]4CCC[C@@H]4NC(=O)c4cc(-c5cnn(C)c5)cnc4N)cc3)cc2)CC1	RET (Homo sapiens, UniProt P07949, V804M)	enzyme activity, inhibitor	0.1 µM		inhibition	-3%
NC(=O)C[C@H]1CCc2sc3ncnc(O[C@H]4CC[C@H](N5CCOCC5)CC4)c3c21	RET	enzyme activity, inhibitor	10 µM		inhibition	1%
C=CC(=O)Nc1cccc(-c2cnc3[nH]cc(C(=O)NC(C)(C)C)c3n2)c1	RET	enzyme activity, inhibitor	0.1 µM		inhibition	28%
COc1ccc(NC(=O)Nc2ccc3c(c2)C(=O)N(C(C)CO)CC(C)C(CN(C)Cc2ccc4c(c2)OCO4)O3)cc1 (centres unmarked)	RET	kinase activity, KinaseProfiler	0.03 µM, species human	baseline: control	remaining activity	107%
